Measured values from different studies.
Numbered parts are unrelated; each lists some results of a single study.

Block 1
Target: Sal-like protein 4, full length isoform B (SALL4, Homo sapiens, UniProt Q9UJQ4-2, residues 1-616)
Method: universal PBM
Form: double-stranded DNA, one strand shown
Sample: in vitro
Concentration: not given
Setting: 8-mer, flanks averaged, mean of replicates
Reading: higher = stronger binding
Measurement: E-score
Residues (chain): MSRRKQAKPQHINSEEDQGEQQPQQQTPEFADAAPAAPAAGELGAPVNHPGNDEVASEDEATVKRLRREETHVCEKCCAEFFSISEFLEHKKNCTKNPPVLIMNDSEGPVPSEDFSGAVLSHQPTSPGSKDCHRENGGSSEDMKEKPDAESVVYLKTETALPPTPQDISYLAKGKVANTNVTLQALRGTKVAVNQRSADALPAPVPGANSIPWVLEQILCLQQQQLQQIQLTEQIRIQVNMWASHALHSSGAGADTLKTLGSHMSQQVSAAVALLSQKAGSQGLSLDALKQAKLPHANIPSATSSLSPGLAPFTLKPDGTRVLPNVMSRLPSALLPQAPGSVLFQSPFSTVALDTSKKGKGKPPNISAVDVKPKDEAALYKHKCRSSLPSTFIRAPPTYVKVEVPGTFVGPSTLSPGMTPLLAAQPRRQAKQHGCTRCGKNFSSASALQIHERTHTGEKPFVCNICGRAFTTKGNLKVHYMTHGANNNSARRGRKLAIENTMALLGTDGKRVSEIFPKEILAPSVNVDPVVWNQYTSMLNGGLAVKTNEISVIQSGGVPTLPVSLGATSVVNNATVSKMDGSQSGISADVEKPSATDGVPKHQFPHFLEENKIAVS
AACTAGCT: 0.0641
ACAGGAAC: 0.0428
CGCCATGC: -0.141
AAACGAGA: 0.0837
ATACCAGC: -0.0614
ACTGAAAG: 0.0671

Block 2
Target: Centromere-binding protein 1, full length, His-tagged (CBF1, Saccharomyces cerevisiae, UniProt P17106, residues 1-351)
Chain of UniProt P17106 (whole entry, looked up): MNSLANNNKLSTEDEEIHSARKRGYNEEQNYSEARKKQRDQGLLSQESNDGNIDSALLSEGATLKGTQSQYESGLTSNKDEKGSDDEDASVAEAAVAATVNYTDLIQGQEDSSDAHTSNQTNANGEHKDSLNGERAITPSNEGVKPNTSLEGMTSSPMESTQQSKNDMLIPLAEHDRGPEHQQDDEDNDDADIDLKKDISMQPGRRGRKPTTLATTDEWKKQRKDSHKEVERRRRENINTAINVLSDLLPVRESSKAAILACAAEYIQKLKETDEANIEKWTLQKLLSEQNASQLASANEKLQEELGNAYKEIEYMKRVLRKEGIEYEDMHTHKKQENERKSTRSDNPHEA
Method: competition protein-binding microarray
Form: double-stranded DNA, one strand shown
Sample: in vitro
Concentration: 2 µM
Setting: whole 60-bp probe, lowest competitor level
With: Pho4 competitor, 0.05 µM
Reading: higher = stronger binding
Measurement: fluorescence intensity
GCTAAATCATATTCCAACGTGTAATGAACGTCCTGGGTCTTGATTCGCTTGACGCTGCTG: 95.1 a.u.
TGAGTTGATAGATCGCACGCTCTCGCCGATATAAGCGTCTTGATTCGCTTGACGCTGCTG: 57.8 a.u.
GTCTTGTCTCATTTTCACGTGAACTTCCCCACTTCAGTCTTGATTCGCTTGACGCTGCTG: 709 a.u.
GTTGACTGTCCCCGTCACGATATCTTAATGAGTACTGTCTTGATTCGCTTGACGCTGCTG: 166 a.u.

Block 3
Target: Histone acetyltransferase KAT6A, both winged helices, GST fusion (KAT6A, Homo sapiens, UniProt Q92794, residues 1-181)
Method: protein binding microarray
Form: double-stranded DNA, one strand shown
Sample: in vitro
Concentration: not given
Setting: 8-mer, flanks averaged, mean of 2 arrays, mostly near background
Relative to: not given
Reading: higher = stronger binding
Measurement: E-score
Target sequence (chain): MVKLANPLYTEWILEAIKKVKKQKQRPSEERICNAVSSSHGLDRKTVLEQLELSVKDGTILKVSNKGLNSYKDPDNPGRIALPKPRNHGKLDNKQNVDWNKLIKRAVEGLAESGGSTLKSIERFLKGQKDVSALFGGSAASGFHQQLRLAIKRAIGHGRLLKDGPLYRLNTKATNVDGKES
GCTTATCA: -0.161
CATTAACA: -0.112
GGGCTGCA: -0.0595
TACCGGGA: 0.213
CTAAGCGA: 0.0229

Single results of other studies
PhoQ, residues 284 288 289 292 302 303 ASASEQ  fold induction (PhoP, residues 12 14 15 18 19 LHHVQ (Escherichia coli, UniProt P23836); Sort-seq, refers to: YFP reporter; E. coli; PhoQ-PhoP variant library, with: 10 µM Mg2+; relative to: high Mg2+ state, higher = stronger signaling): 20.9

Repeated from above (single results of other studies):
PhoQ, residues 284 288 289 292 302 303 ASASEQ  fold induction (PhoP, residues 12 14 15 18 19 LHHVQ (Escherichia coli, UniProt P23836); Sort-seq, refers to: YFP reporter; E. coli; PhoQ-PhoP variant library, with: 10 µM Mg2+; relative to: high Mg2+ state, higher = stronger signaling): 20.9
